Experimental data of several laboratories.
A part holds a random share of what one study measured. Several values in a cell are separate wells, animals, samples, runs or records.
UniProt P42338, sequence (whole entry, looked up): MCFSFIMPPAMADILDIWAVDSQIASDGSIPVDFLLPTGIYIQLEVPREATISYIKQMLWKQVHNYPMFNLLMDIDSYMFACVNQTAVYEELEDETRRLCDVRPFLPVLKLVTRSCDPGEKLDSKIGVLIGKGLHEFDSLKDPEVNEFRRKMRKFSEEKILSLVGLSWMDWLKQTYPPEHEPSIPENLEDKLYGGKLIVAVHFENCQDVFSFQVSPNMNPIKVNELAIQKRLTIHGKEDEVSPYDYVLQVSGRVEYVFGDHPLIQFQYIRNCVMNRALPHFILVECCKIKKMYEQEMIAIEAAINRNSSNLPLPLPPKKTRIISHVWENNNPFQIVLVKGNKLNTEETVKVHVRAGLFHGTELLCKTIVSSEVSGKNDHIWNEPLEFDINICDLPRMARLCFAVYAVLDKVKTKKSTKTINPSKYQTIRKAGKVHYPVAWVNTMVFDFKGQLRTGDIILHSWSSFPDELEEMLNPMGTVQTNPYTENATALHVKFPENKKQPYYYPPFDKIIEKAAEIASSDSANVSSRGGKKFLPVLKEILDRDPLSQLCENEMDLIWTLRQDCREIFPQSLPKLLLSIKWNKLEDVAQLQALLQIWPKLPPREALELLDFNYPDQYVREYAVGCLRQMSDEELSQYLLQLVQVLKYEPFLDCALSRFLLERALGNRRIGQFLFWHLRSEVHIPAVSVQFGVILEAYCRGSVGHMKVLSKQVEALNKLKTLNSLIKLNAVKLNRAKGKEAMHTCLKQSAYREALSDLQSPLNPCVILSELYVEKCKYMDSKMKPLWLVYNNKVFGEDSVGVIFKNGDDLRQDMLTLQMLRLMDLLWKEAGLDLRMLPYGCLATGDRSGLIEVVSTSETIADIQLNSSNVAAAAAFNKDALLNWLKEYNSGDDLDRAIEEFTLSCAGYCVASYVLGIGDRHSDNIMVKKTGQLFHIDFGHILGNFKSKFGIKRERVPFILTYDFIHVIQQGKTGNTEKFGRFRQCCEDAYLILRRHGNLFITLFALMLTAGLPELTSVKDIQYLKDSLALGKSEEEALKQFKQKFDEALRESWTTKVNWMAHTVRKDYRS
UniProt O43353, sequence (whole entry, looked up): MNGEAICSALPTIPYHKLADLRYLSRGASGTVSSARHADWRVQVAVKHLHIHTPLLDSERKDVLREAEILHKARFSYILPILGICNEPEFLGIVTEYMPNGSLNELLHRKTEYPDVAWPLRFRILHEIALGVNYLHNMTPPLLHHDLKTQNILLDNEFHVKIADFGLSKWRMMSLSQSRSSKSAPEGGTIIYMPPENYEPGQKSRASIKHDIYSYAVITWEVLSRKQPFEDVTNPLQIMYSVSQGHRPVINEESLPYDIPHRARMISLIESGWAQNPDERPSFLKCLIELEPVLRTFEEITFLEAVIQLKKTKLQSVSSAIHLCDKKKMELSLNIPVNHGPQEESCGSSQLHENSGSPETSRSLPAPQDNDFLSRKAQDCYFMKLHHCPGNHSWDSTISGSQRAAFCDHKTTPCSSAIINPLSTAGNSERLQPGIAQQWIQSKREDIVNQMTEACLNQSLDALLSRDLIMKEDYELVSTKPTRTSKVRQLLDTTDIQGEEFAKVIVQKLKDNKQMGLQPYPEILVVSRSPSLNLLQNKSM
UniProt Q9UIK4, sequence (whole entry, looked up): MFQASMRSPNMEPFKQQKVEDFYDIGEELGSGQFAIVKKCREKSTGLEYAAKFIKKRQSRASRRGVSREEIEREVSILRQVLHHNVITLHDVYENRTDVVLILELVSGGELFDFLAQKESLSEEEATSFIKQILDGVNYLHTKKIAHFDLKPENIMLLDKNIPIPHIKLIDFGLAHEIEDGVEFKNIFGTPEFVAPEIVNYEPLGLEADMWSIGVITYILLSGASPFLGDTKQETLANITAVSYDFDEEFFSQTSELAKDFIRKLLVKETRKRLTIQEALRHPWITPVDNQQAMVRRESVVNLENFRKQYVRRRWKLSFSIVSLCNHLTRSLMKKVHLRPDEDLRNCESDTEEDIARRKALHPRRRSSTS
UniProt Q99755, sequence (whole entry, looked up): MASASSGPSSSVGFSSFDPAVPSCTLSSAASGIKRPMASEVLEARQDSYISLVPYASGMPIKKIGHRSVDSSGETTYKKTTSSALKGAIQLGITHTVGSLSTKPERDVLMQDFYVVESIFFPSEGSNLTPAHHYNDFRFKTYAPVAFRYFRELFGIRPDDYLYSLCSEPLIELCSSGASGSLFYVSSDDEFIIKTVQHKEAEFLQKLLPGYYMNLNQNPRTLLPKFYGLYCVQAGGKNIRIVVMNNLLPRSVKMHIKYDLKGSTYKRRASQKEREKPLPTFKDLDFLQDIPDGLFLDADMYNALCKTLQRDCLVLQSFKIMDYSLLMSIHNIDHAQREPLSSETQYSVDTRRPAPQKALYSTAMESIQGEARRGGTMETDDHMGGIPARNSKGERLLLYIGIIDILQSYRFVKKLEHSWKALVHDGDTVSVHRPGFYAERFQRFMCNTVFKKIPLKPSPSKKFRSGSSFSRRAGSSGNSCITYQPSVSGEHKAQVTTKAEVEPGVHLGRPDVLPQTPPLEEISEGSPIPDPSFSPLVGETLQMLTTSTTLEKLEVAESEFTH
UniProt Q9UM73, sequence (whole entry, looked up): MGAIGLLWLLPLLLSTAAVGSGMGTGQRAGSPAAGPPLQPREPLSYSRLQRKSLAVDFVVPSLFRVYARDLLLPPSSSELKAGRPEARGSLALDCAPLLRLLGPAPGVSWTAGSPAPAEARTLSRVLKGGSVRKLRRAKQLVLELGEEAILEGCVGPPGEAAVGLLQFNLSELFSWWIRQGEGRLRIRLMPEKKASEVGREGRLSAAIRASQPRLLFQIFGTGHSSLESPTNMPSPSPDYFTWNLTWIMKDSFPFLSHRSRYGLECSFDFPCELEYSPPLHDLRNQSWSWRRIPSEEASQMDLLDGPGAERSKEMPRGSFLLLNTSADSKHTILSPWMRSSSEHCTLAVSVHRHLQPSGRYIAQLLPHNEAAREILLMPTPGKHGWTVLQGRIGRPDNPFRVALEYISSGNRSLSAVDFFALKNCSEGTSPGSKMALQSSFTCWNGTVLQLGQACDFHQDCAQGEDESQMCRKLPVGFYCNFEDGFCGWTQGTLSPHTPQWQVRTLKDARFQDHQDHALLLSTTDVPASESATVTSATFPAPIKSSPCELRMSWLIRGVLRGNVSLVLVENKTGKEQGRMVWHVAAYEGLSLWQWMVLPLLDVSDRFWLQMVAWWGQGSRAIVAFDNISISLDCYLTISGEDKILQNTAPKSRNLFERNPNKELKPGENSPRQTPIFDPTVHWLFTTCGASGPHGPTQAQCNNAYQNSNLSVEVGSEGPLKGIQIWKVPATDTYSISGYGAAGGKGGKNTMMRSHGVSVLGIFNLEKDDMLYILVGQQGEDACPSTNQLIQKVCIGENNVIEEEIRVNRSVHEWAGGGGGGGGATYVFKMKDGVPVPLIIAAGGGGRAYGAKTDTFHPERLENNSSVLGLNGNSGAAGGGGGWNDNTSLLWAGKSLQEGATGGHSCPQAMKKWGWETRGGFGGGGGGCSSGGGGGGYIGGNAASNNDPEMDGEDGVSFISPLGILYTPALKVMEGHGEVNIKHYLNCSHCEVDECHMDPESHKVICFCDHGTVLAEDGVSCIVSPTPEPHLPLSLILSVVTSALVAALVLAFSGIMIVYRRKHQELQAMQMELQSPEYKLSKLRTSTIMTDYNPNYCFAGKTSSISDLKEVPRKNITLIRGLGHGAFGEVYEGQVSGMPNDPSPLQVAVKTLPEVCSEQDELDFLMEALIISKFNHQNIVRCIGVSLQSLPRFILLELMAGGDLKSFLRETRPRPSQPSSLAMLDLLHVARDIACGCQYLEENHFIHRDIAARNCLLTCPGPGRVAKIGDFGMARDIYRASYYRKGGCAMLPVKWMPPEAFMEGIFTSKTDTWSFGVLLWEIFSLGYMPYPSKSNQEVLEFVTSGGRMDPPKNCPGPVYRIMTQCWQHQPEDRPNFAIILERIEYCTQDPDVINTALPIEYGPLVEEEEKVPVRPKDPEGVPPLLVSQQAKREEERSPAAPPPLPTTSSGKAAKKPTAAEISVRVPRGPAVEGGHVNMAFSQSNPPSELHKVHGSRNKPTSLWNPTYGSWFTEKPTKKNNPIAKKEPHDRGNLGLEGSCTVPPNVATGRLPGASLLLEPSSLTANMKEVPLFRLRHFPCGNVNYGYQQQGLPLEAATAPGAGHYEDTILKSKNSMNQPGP
UniProt Q8NFD2, sequence (whole entry, looked up): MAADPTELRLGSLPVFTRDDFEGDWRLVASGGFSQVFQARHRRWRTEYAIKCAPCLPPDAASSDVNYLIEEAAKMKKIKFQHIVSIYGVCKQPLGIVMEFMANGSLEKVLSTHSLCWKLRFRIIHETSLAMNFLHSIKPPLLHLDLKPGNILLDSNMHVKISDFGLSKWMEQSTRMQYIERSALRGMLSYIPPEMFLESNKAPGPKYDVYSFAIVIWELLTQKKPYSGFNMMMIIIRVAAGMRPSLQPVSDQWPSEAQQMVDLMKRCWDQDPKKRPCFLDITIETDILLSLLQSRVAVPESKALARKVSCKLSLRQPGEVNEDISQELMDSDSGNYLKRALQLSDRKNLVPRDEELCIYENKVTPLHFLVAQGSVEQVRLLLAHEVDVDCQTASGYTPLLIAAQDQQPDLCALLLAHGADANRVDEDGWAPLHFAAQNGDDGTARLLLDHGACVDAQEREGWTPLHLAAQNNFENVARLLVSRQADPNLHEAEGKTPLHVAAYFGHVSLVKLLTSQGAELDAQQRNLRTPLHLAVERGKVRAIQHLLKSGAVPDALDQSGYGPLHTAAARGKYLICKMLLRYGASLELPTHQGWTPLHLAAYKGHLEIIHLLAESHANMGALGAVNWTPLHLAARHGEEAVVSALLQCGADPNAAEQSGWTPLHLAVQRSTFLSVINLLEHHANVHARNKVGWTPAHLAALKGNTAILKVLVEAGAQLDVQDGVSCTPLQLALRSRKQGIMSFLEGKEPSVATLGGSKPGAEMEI

Series 1 — technique: phase 2a trial; species: idiopathic pulmonary fibrosis patients; dose: all arms pooled; quantity: patients with hypokalaemia
SMILES: CC(C)n1cnc(-c2ccc(F)cc2)c1-c1ncc(C(=O)Nc2ccc(N3CCN(C)CC3)cc2)[nH]1
grade 4 emergent event: 0%
grade 3 emergent event: 0%
grade 5 emergent event: 0%

Series 2 — cell line: A-375; tested at: 100 µM; time: 36 h; quantity: viability
O[C@@H](c1cc(C(F)(F)F)nc2c(C(F)(F)F)cccc12)[C@H]1CCCCN1: -1.04%
CO[C@@]1(NC(=O)Cc2cccs2)C(=O)N2C(C(=O)O)=C(COC(N)=O)CS[C@@H]21: 113%
CCOC(=O)C1=C[C@]2(CC)CCCN3CCc4c(n1c1ccccc41)[C@@H]32: 21%
COc1c(C)c2c(c(O)c1C/C=C(\C)CCC(=O)OCCN1CCOCC1)C(=O)OC2: 34.9%

Series 3 — species: human; sample: microsomes or S9; tested at: 2 µM; time: 0.5 h; quantity: remaining compound
O=C(C1CCN(C2=NS(=O)(=O)c3ccccc32)CC1)N1CCCc2ccccc21: 9.1%
CCn1[nH]cc/c1=N\C(=O)c1nn(-c2ccccc2)c(=O)c2ccccc12: 47.6%
Fc1ccccc1C(c1nnc(-c2ccccc2)o1)N1CCc2ccccc2C1 (centres unmarked): 16.8%

Series 4 — Compound: CSc1cccnc1N1CCN(Cc2nc3ccccc3[nH]2)CC1; tested at: 1 µM; quantity: remaining binding
MAPK6 (Homo sapiens, UniProt Q16659); cell-free assay, competition with immobilised ligand: 100%
EPHA2 (Homo sapiens, UniProt P29317); cell-free assay, competition with immobilised ligand: 100%
Tyrosine-protein kinase JAK1, JH2 (JAK1, Homo sapiens, UniProt P23458); cell-free assay, competition with immobilised ligand: 80%
MAK (Homo sapiens, UniProt P20794); binding, competition with immobilised ligand: 100%
PIK3CB (Homo sapiens, UniProt P42338); cell-free assay, competition with immobilised ligand: 74%
CDK7 (Homo sapiens, UniProt P50613); cell-free assay, competition with immobilised ligand: 61%
LRRK2 (Homo sapiens, UniProt Q5S007, G2019S); cell-free assay, competition with immobilised ligand: 92%
ABL1 (Homo sapiens, UniProt P00519, F317I); KINOMEscan; F317I mutant, phosphorylated; relative to: control: 74%
PIP5K1A (Homo sapiens, UniProt Q99755); cell-free assay, competition with immobilised ligand: 96%
EPHB3 (Homo sapiens, UniProt P54753); cell-free assay, competition with immobilised ligand: 93%
ALK (Homo sapiens, UniProt Q9UM73); cell-free assay, competition with immobilised ligand: 70%
RIPK2 (Homo sapiens, UniProt O43353); cell-free assay, competition with immobilised ligand: 100%
DAPK2 (Homo sapiens, UniProt Q9UIK4); cell-free assay, competition with immobilised ligand: 100%
LATS1 (Homo sapiens, UniProt O95835); cell-free assay, competition with immobilised ligand: 100%
ANKK1 (Homo sapiens, UniProt Q8NFD2); cell-free assay, competition with immobilised ligand: 92%
EGFR (Homo sapiens, UniProt P00533, G719C); cell-free assay, competition with immobilised ligand: 96%
MAP3K5 (Homo sapiens, UniProt Q99683); cell-free assay, competition with immobilised ligand: 98%
FLT3 (Homo sapiens, UniProt P36888, R834Q); cell-free assay, competition with immobilised ligand: 100%
PKMYT1 (Homo sapiens, UniProt Q99640); cell-free assay, competition with immobilised ligand: 100%

Series 5 — organism: Sarcocystis neurona; effect on: parasite growth; tested at: 10 µM; notes: secondary screen; quantity: inhibition
NCc1ccc(S(N)(=O)=O)cc1: -45.7%
CCCCC1=NC2(CCCC2)C(=O)N1Cc1ccc(-c2ccccc2-c2nnn[nH]2)cc1: -12.5%
CC(C)Cc1ccc(C(C)C(=O)O)cc1 (centres unmarked): -30.8%
COc1cc2c(cc1OC)C(=O)C(CC1CCN(Cc3ccccc3)CC1)C2 (centres unmarked): -54.8%

Series 6 — cell line: mouse MPNST tumor cells; technique: high-content nuclear imaging; refers to: cell number; tested at: 10 µM; time: 12 h; notes: mean of 2 replicates; relative to: plate mean; direction: higher = more cells; quantity: nuclei count
O=C1CN2Cc3c(ccc(Cl)c3Cl)N=C2N1: -0.369 z-score
CN(C)C(=N)NC(=N)N: 1.84 z-score and 2.78 z-score and 0.728 z-score
CCOC(=O)[C@H](C)C[C@@H](Cc1ccc(-c2ccccc2)cc1)NC(=O)CCC(=O)O: 1.8 z-score
CC(C)Cn1cnc2c(N)nc3ccccc3c21: -0.505 z-score

Other studies, line by line
CN(C(=O)c1ccn2ncc(-c3ccc(C(N)=O)cc3)c2c1)c1ccc(C#N)cn1
faecal oocyst shedding (Cryptosporidium parvum; qPCR; IFN-γ knockout mice; intravenous, 1 mg/kg): 6.85 log oocysts/g faeces and 6.92 log oocysts/g faeces and 6.94 log oocysts/g faeces

A few entries again (series 5):
COc1cc2c(cc1OC)C(=O)C(CC1CCN(Cc3ccccc3)CC1)C2 (centres unmarked): -54.8%
NCc1ccc(S(N)(=O)=O)cc1: -45.7%
